Experimental data of several laboratories.
Every numbered part comes from another study and shows a few of its results, in no order. Positions count from the first letter of the parent shown.

Study 1 — technique: protein-binding microarray; form: double-stranded DNA, one strand shown; sample: in vitro; concentration: not given; reading: higher = stronger binding; quantity: E-score
Target: Transcription factor SOX-2, HMG box (SOX2, Homo sapiens, UniProt P48431, residues 19-118)
Chain of UniProt P48431 (19-118, looked up): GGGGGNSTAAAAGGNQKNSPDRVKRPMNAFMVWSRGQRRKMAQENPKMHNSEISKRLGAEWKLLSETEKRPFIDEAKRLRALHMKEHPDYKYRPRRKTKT
Setting: k-mer, scored over probes, only values ≥0.25
AGAGAAT: 0.299
AGAATGA: 0.299
AATTAGC: 0.336
AACATAA: 0.253
ATAAAAT: 0.264
CACAATG: 0.444
ATTCTTC: 0.357
ATAATAC: 0.365
AATTCAG: 0.37
ATTGTTC: 0.48
ATTTAAA: 0.266
ATATTGA: 0.318
AGTATTG: 0.268
CAATAAC: 0.329
AAAAAGC: 0.333
ACAATGT: 0.414
AATTGAA: 0.423
AATTACA: 0.386
AATTTGT: 0.336
AAACAAA: 0.325
GAATGGC: 0.276
CTGAATA: 0.309
AATATGA: 0.311
GAATGCA: 0.343

Study 2 — technique: RNA Bind-n-Seq; form: RNA; sample: in vitro; concentration: 200 nM; setting: whole 134-nt RNA, ends assumed; together with: 150 mM KCl; relative to: input library; reading: higher = stronger binding; quantity: log2 enrichment
Target: Ras GTPase-activating protein-binding protein 1, full length (G3BP1, Homo sapiens, UniProt Q13283)
Chain of UniProt Q13283 (whole entry, looked up): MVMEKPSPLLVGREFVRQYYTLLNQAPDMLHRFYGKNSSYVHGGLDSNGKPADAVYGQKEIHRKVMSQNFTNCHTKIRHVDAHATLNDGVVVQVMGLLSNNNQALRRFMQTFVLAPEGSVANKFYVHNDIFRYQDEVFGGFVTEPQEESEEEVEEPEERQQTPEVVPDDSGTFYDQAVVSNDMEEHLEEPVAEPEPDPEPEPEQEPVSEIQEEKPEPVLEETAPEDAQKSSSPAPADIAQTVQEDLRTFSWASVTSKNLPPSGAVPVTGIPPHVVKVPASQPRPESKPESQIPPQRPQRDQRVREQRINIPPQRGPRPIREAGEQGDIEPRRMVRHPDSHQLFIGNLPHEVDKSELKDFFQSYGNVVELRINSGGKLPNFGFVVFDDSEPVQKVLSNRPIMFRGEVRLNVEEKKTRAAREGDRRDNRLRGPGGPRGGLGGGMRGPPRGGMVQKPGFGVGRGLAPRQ
All sequences stand within: GGGAGUUCUACAGUCCGACGAUC … UGGAAUUCUCGGGUGUCAAGG
UGGUGGACCCGCAGCAGCUGGGCAUGUUCACGGAGGGCGAGCUGAUGUCGGUGGGUAUGGACACGUUCAUCCACCGCAUCGACUCCACCG: -1.26
AAGUCCUGUGCUACACAUCGUAUGUACCGAAUCGGGUGGGAAAAAAAGGGAAAGGGAAAGUAUUAUGUUACGCCGUUCGGAUCUGCACUU: 0.0115
AAGUCCUGUGCUACACAUCGUAUGUACCGAAUCGGAAAGGUUUUUGGAAAAAAAGGAAAGUAUUAUGUUACGCCGUUCGGAUCUGCACUU: -1.49
UCAAGUCCUGUGCUACACAUCGUAUGUACCGAAUCGGGGCCGGGCCGGGCCGGGAAAGUAUUAUGUUACGCCGUUCGGAUCUGCACUUCC: 0.137
CACAGACAACACGCACCCACACAGACACAGAGGGAAGGGGUUGGGAUGGGGAAAGGGUGCACAGCAGGGCGGGGUAGGACCCCAGCCCCU: 1.77
ACCAUGCAGGUGGGCAUCUUUGGGAAGUGGGGCAAGGGGGGGAUAGGGAGAGGGGUAACACUUUGGGAACAGGUGGUCCCAGGUCGUUUC: 1.15
CCUCAAGUCCUGUGCUACACAUCGUAUGUACCGAAUCGGGGAGGAGGGAGGGGAAAGUAUUAUGUUACGCCGUUCGGAUCUGCACUUCCA: 1.35
UGGCCCUGGUGGCAUGCGGAGAGGAAGAGGUGGCCUCAUGGAUCGUGGUGGUCCCGGUGGAAUGUUCAGAGGUGGCCGUGGUGGAGACAG: 0.336
AGUCCUGUGCUACACAUCGUAUGUACCGAAUCGGGGAGGGGAGGGGAAAAAAAGGGGAAAGUAUUAUGUUACGCCGUUCGGAUCUGCACU: 0.491

Study 3 — technique: RNA Bind-n-Seq; form: RNA; sample: in vitro; concentration: 365 nM; relative to: no-protein control; reading: higher = stronger binding; quantity: RBNS enrichment (R)
Target: RNA binding protein fox-1 homolog 2, RRM domain, GST-SBP tag (RBFOX2, Homo sapiens, UniProt O43251-10, residues 100-194)
Setting: natural RNA segment, single round, ends assumed
All sequences stand within: GGGAGUUCUACAGUCCGACGAUC … UGGAAUUCUCGGGUGCCAA
Target sequence (chain): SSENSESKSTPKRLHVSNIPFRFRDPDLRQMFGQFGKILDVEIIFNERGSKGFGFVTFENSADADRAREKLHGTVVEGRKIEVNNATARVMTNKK
UCACCCUGUGGUGCAACACUUGAAAGACCCGGCUAGAGGCACUAUGGACUUCAGGAUCCACUAGACAGUUUUCAGUUUGCUUGGAGGUAGCUGGGUAAUCAAAAAUGUUU: 0.859
AGCAGUUAUCAAUAAUUCCCACCCAGGAAACUUUUAUUUAUUGUUUUUUAAAGAUAAAACUGCACAGAUGGGAGUGAGAGAUUUACCUCUGCUCCUUCCUCCUUCAGUGC: 0.543
UGUUAGUGGUAACUCAGUUUGUCUUUAAAUAGUUACAGAAGGGAUACGUCAUUUGUUAAUGCUUUUGUGAAGUGAGUUAAACGAGCUUUCUGUAUUUUAAUGCUUUAGUG: 3.18
ACAUGAAGUGCAAUAAGCUUAUAAAGCUAAGUAGUUAUUAAUAUUUCUAUUAACAUGAUACAAAGGAUGAUGAUUGUAAGUGUUUACUGACUGGCAGCUUUUAUUUCAGU: 0.5
ACCUGGAGGUGGUCCAUGCCAGAUCCUCAUUUGUGCCUUCAGCUUCAUAGGCAGCAUACGCCUGCUGCCCCAUUGUGGGUGGGGGUGCCCCACUGCGUACUGUGUUUUUA: 0.308
ACACACAAGAGUUUACAGAUUAGUUUAAAUUGAUAAUGAAAUGUGAAGUUUGUCCUAGUUUACAUCUUAGAGAGGGGAGUAUACUUGUGUUUGUUUCAUGUGCCUGAAUA: 0.758
GUUCUUUGAUUUUAAAAAGAAAAACCUUUUCCAUCAUAUUAAAGAGAAAAUUAGCUAUGGGAAGAUAUUAAAAGAUUUCUUAGAUGGAUGUGGUUAAAAUUUUUGUAAUA: 1.5
CAAAAAUGAUGCCUUUCUGUAGGCUGGUGUUGUUGCCUCCCUCCCAGGAUCCCUUUGGUGAGUAUGGUGUUCAGGAUGCACCACCACCACCUCUAGAUACCUUCAGGCAA: 0.446

Study 4 — target: CCNA1, cyclin fold, Cln2 fusion (human); technique: yeast growth competition, sequencing; sample: yeast; setting: weak parent motif; relative to: not given; reading: higher = stronger binding; quantity: normalised enrichment score
Parent: INSM1 docking peptide (human); PKAIRKLHFEDEV; partner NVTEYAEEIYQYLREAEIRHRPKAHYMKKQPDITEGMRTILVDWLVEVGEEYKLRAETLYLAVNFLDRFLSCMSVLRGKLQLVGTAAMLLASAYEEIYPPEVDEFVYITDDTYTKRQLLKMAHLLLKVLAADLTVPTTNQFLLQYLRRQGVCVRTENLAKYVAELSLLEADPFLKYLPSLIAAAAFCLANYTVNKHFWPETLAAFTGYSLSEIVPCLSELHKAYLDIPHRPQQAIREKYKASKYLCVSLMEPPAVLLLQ
L7A: -0.0327
D11I: 0.604
H8V: 0.931
K6S: 0.194
E12S: 0.827
D11P: 0.72
K6P: -0.396
K6F: -0.154
E10N: 0.457
E12G: 0.702
F9W: 0.226
F9Q: 0.185
F9G: 0.0637
E12H: 0.591
A3S: 0.446
K2P: 0.0488
A3Y: -0.0488
A3G: -0.079
L7C: 0.125
A3P: 0.319
K6Y: 0.311
E10Q: 0.432
A3Q: 0.187
D11G: 0.523
E12R: 0.235

For quick reference, copied from above (study 1):
AACATAA: 0.253
ATAAAAT: 0.264
CACAATG: 0.444
ATTCTTC: 0.357
ATAATAC: 0.365
AATTCAG: 0.37
